Measurements from different studies.
Every numbered part comes from another study and shows a few of its results, in no order. Substitutions count along the parent as printed.

Series 1 — method: protein binding microarray; molecule type: double-stranded DNA, one strand shown; medium: in vitro; concentration: not given; reference: not given; reading: higher = stronger binding; measurement: E-score
Target: Histone acetyltransferase KAT6A, winged helix 2, GST fusion (KAT6A, Homo sapiens, UniProt Q92794, residues 85-181)
Setting: 8-mer, flanks averaged, mean of 2 arrays, mostly near background
Construct (chain): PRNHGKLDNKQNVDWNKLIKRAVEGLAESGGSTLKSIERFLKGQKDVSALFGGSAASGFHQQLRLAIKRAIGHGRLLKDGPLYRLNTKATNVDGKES
ACTCGCAC: 0.119
ACCGAATA: -0.0296
CTACAGTA: -0.275
CAACCTAG: -0.067
ATTTACCG: -0.107
CGTACCGC: 0.0965
TAGCGACA: 0.0288
AAAAGCTG: 0.0767
GTGATCAA: 0.0772
AGGGTGAG: -0.0222
AAGTAACT: 0.00956
ACAGCGAA: 0.0871
CAAGCAAC: 0.0976
ACTTCGAG: 0.0776
GCATTACC: -0.0948
ATTAACAG: -0.0137
AGGCTGAT: -0.0533
AGTGAATA: 0.00617
ACGATCGG: -0.091
AATATGAT: 0.0526
CGGCCTGC: 0.128
GACCAGCC: 0.107
GCACTGCC: 0.142
CGGGCGAC: -0.0538
AAACCGGT: -0.127

Series 2 — target: CRIPT, C-terminal peptide; method: DHFR complementation, deep sequencing; medium: yeast; reference: wild type; reading: higher = weaker binding; measurement: binding free energy change
Setting: single substitutions, model-inferred values
Starting sequence: ERBIN, PDZ domain 1 (human); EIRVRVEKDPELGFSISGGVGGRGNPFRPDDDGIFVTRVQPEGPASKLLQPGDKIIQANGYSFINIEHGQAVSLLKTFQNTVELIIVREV; partner TKNYKQTSV
N65Q: 0.0466 kcal/mol
E42S: 0.0477 kcal/mol
L12C: -0.341 kcal/mol
Y61K: -0.0876 kcal/mol
V4I: -0.0534 kcal/mol
R3V: -0.254 kcal/mol
V36P: 0.995 kcal/mol
G13K: 0.557 kcal/mol
S15R: 1.1 kcal/mol
Q50F: -0.0504 kcal/mol
V90H: -0.0119 kcal/mol
R5E: -0.0224 kcal/mol
R88A: 0.0327 kcal/mol
V39E: 0.859 kcal/mol
D30N: 0.224 kcal/mol
G33N: 0.936 kcal/mol
P10V: -0.603 kcal/mol
S17R: 1.19 kcal/mol
G13T: 1.57 kcal/mol
P44V: 1.04 kcal/mol
G69L: 0.171 kcal/mol
V20T: -0.0273 kcal/mol
Q70V: 0.00426 kcal/mol
N59V: 0.322 kcal/mol
K8V: 1.31 kcal/mol

Series 3 — method: universal PBM; molecule type: double-stranded DNA, one strand shown; medium: in vitro; concentration: not given; reading: higher = stronger binding; measurement: E-score
Target: Sal-like protein 4, full length isoform B (SALL4, Homo sapiens, UniProt Q9UJQ4-2, residues 1-616)
Setting: 8-mer, flanks averaged, mean of replicates
Target sequence (chain): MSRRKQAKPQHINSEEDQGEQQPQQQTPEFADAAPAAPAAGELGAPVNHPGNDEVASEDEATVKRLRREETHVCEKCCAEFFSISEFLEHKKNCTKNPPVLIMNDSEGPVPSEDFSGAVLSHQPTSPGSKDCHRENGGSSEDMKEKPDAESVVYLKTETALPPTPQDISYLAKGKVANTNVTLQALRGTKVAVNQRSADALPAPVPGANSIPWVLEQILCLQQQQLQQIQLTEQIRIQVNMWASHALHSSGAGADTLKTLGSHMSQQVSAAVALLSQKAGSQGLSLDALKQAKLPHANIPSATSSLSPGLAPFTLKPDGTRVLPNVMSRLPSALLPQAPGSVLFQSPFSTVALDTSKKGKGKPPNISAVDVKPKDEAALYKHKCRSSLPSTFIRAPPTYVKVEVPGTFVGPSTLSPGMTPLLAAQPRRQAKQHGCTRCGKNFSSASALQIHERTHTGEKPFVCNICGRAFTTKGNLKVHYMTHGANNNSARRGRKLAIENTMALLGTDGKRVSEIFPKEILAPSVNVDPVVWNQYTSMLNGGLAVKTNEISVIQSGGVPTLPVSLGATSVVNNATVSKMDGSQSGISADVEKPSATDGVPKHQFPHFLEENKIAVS
ACTAGAGG: -0.0373
TCTAAACA: 0.195
CGCGCCTA: -0.0471
ACCCATGA: -0.156
CACTACTA: 0.0547
TCGTAAGA: -0.00273
AGATATTC: 0.179
CAATTGGG: -0.185
ACATGCAC: 0.106
AGAAAATC: 0.114
TCAAAGAA: 0.157
ATTTTCTA: 0.279
ACAATCCT: 0.0938
CATTCTCC: 0.034
TCTATCCA: 0.0755
TTAATTAA: 0.386
GATCCGGA: -0.0968
ATCGTGCG: 0.148

Series 4 — target: CREB3, bZIP domain (human); method: DHFR protein complementation; medium: yeast; reference: wild-type JUN-FOS pair; reading: higher = stronger binding; measurement: binding fitness
Setting: single substitutions, most at no-binding floor
Starting sequence: JUN, bZIP domain (human); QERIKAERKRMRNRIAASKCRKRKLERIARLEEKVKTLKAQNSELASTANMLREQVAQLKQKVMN; partner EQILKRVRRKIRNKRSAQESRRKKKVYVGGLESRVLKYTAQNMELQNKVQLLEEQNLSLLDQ
T37F: -1.43 natural log
K34H: -1.58 natural log
E54F: -1.54 natural log
Q55W: -1.46 natural log
R30F: -1.31 natural log
N42F: -1.38 natural log
E33W: -1.48 natural log
A49K: -1.44 natural log
K39V: -1.47 natural log
E33H: -1.45 natural log
A57G: -1.46 natural log
E32A: -1.46 natural log
R30M: -1.5 natural log
A49Y: -1.36 natural log
A29Y: -1.18 natural log
R53F: -1.57 natural log
S47W: -1.45 natural log
L31N: -1.38 natural log
L31K: -1.55 natural log
L45R: -1.52 natural log
Q55N: -1.5 natural log

Series 5 — method: DHFR PCA, deep sequencing; medium: yeast; together with: (+)-ABA 0.39 µM; reference: wild-type fitted maximum; reading: higher = stronger binding; measurement: relative binding score
Target: ABI1, truncated, D143A, DHFR fusion (Arabidopsis thaliana)
Setting: methotrexate growth selection, single substitutions
Starting sequence: PYL1, truncated, DHFR fusion (Arabidopsis thaliana); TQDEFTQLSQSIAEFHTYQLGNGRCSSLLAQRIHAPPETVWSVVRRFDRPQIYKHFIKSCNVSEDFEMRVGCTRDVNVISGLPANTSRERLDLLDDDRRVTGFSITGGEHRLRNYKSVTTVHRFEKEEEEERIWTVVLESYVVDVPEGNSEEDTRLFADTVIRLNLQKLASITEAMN
Q2G: 19.1%
W134K: -0.0417%
L91C: 2.63%
L8T: -5.21%
F47I: -4.23%
S150D: 27.1%
E139R: 13.4%
K116M: -17.2%
C60H: 5.62%
S11A: 58.7%
N165R: 12.9%
L93K: 3.95%
H122K: 0.632%
L91S: -21.2%
H122R: -7.03%
I133D: 74%
E130N: 39.6%
N177P: 60.7%
R99G: -5.65%
C25Y: -9.81%
V136S: -12.7%

Series 6 — method: RNA Bind-n-Seq; molecule type: RNA; medium: in vitro; concentration: not given; reference: input RNA pool; reading: higher = stronger binding; measurement: bound/input enrichment
Target: RING finger protein unkempt homolog, zinc fingers 1-6, GST-SBP tag (UNK, Homo sapiens, UniProt Q9C0B0, residues 30-357)
Sequence of UniProt Q9C0B0 (30-357, looked up): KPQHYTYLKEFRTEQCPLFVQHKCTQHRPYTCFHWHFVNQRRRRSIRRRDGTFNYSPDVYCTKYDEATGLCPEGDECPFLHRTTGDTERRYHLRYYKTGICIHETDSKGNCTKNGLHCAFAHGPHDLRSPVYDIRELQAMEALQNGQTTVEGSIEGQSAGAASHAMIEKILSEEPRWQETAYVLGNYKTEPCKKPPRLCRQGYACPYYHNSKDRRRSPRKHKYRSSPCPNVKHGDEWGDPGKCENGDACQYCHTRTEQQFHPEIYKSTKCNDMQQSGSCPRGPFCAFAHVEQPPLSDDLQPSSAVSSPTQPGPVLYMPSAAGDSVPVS
Setting: RNA with constant flanks, human and mouse sites, ends assumed
Shared flanks, not repeated: GGGAGUUCUACAGUCCGACGAUC … CAACAGAGGAUUGAGCAUCA
UACGGCAAAGGCAAGAGUAACAGCAGCGCCGUCCCGUCCGACAGCCAGGCCCGGGAGAAGUUAGCACUCUACGUAUAUGAAUAUCUGCUCCAUGUAGGAGCUCAGAAAUCAGCUCAAACA: 0.25 ratio
GAUCUCAUGGAAGAGUAUCACACGUGGCAGAGCUUUGGGAACUCUCACAGGUUUUCCUUCUGUCAGUACCCAUUCGUUAUUUCUAUAGCUGCAAAAAAAAUCAUUAUUCAAAGAGACUCA: 0.728 ratio
UUGUUCCAUGAAUAUCUUUCUUAAGAAGUGUUACCUUGUUAAAGUGACUACCAUUCUAAACCAUUUUUAAGUGGUCUGGACAGUGAGUUUACAGUUUCAUAUCAACUAUCUAAAACCUAA: 0.148 ratio
UCUUUUACCUCAUACUCACCUUAUGUAACAGAACUUAUAAUGGAAUCCAAUGUAGAGCUCAUAGCAAAAAAUGACUUGCGCUUUAUAGAUGCUGUCUAUAAGCUUCUUCGUGAUCAAUUU: 0.308 ratio
UCCUCCUGCCUCUGCCUCCUGAGUGCUUCAUUAAAGGCUAUGCCACUACACCUGGGAACAUAGUUUCUAAGAAAGCUUCUUGUCUUUUCAUUUGGCAGGUAUCAUGUUCAUUUGUUGUUU: 0.163 ratio
CUCCCUGACAACACCUUUCGAGACCUGGGCAACCUCACGCAUCUCUUUCUGCAUGGCAACCGUAUCCCCAGUGUGCCUGAGCACGCUUUCCGUGGCCUGCACAGUCUUGACCGCCUCCUC: 0.193 ratio
AGAGGGAGCCAAACAAAGCUGCUGUGCUAUAUGAUGCUGUUUUCUUUAUUUGUCUUUUUUAUCAUUUAUUGGAUUAUUAAACUGAGGUGAUGCAUGUAAUUGUGAAUUUGGAAUUUGUUC: 0.352 ratio
UUUUUCUGUUCACAGUAUUUGUGUGUGUGCUUGUUUUGGCAGCUCAUUUUGGCUGUAUUAUAUAUUGAGUGAUGAAUUGAUCCUCUUUUUUCCCUAAGGGAUAUGAAUUGUUUUUCUUGU: 0.611 ratio
AAAAGAAGCCAAUUCAACUUUGUUGUGAUUUGAUUUUUUUAAAAACUCUUAUACAAAACUGAUCUAAUUCUUCACUCCUGCUCCAAGGGCUGGGCUGUGGGUGGGGACUGGGGUUUCGGG: 0.308 ratio
UUGAGACCUUGUGUACUAAGAGCAAGGAAGUAUAGCUAAGAUGUCUAGAUUAUUUAUAUGUAGUAUGGUGGGGAGUGGGGCUGCAAGGAAGGGGGCUGACAUUGUAAAUGAGAAAAUCAG: 9.2 ratio
GAUAUUCUCUACGCCCGGCAAAAGAUUGUUGUCAUAGCGAAAGCCUUUGGUCUCCAAGCCAUAGAUCUGGUGUACAUUGACUUUCGAGAUGGAGCUGGGCUGCUUAGACAGUCACGAGAA: 0.151 ratio

Series 7 — target: CCNE1, cyclin fold, Cln2 fusion (human); method: yeast growth competition, sequencing; medium: yeast; setting: strong parent motif; reference: not given; reading: higher = stronger binding; measurement: normalised enrichment score
Starting sequence: BRCA2 docking peptide (human); PSIKRNLLNEFDR; partner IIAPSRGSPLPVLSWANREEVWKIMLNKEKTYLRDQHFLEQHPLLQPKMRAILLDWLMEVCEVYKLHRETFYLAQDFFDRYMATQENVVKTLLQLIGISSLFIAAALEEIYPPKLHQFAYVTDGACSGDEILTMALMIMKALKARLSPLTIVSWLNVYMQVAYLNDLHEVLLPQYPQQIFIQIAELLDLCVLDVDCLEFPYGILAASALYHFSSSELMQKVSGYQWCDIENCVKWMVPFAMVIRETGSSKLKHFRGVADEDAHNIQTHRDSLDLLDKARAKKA
R5Q: 0.732
N9L: 2.59
L7F: -0.0788
L8D: 0.31
R13V: 1.96
L8A: 0.235
L7M: 0.0306
N6L: 0.499
S2C: 2.41
R13G: 1.92
K4N: 0.513
I3F: 4.56
I3V: 5.44
F11M: 1.12
E10L: 0.814
S2F: 0.851

Further values, each from its own experiment
PhoQ, residues 284 288 289 292 302 303 SSCLAV — fold induction (PhoP, residues 12 14 15 18 19 LWHVM (Escherichia coli, UniProt P23836); Sort-seq, item: YFP reporter; E. coli; PhoQ-PhoP variant library, together with: 10 µM Mg2+; reference: high Mg2+ state, higher = stronger signaling): 3.99

A few entries again (series 5):
F47I: -4.23%
S150D: 27.1%
E139R: 13.4%
K116M: -17.2%
C60H: 5.62%
S11A: 58.7%
N165R: 12.9%
L93K: 3.95%
H122K: 0.632%
L91S: -21.2%
